Measurements from different studies.
Compare with care: the assays were run in different laboratories. Values joined by “and” are separate records of one study, mostly repeats; a detail may differ. ± marks the error that the study gave. Values after ≈ are worked out from the molar mass of the structure shown.
LTB4R: Leukotriene B4 receptor 1 (LTB4R, Homo sapiens, UniProt Q15722)
HCAR2: Hydroxycarboxylic acid receptor 2 (HCAR2, Homo sapiens, UniProt Q8TDS4)
UDP-3-O-acyl-N-acetylglucosamine deacetylase C40S: UDP-3-O-acyl-N-acetylglucosamine deacetylase (Pseudomonas aeruginosa, UniProt P47205, C40S)

The maximum inhibition of `O=C(O)c1cc[c]([Hg][Cl])cc1` is reported as less than 100% (blaNDM-1 (Klebsiella pneumoniae, UniProt C7C422); inhibitor).
`N[C@@H](Cc1ccc(O)c(I)c1)C(=O)O` gave an affinity loss of 78 fold (Iodotyrosine deiodinase (Haliscomenobacter hydrossis, UniProt F4KU78, R38E); relative to: wild type over mutant).
The inhibition of `CN(C(=O)n1cnc(-c2ccc[n+]([O-])c2)c1)C1CCCCC1` is reported as 5% (LTB4R; radioligand binding; 10 µM, added: [3H]LTB4).
The inhibition of `COc1ccc(N2C(=O)N(c3c(C)cccc3Cl)Cc3cnc(Nc4ccc(C5CCN(C)CC5)cc4OC)nc32)nc1` is reported as 7.4% (CHEK1 (Homo sapiens, UniProt O14757); kinase activity; 0.5 µM).
For `CC(=O)C(c1ccccc1)c1ccccc1`, activity read “inactive” (Nuclear receptor subfamily 1 group I member 3 (Homo sapiens, UniProt Q14994); concentration not given).
The Ki ratio of `O=C(O)COP(=O)(O)O` is reported as 3070 (TPI1 (Saccharomyces cerevisiae, UniProt P00942, Y208F); enzyme activity, competitive inhibitor, GPDH/NADH-coupled; pH 6.4, 25 °C, ionic strength 0.1 NaCl, added: glyceraldehyde 3-phosphate substrate; relative to: mutant over wild type).
The tissue uptake of `N=C(N)NCCC[C@@H]1NC(=O)[C@H](CCCCNC(=O)c2ccc(CNC34CNCCNCC(N)(CNCCNC3)CNCCNC4)cc2)NC(=O)[C@@H](Cc2ccc(O)cc2)NC(=O)[C@H](CC(=O)O)NC(=O)CNC1=O` [copper-64 labelled] is reported as 0.4 ± 0.07 %ID/g (ex vivo biodistribution; male athymic nude mouse, PC-3 tumour, blood; 7.4 MBq, 48 h).
The apparent Vmax of `O=P(O)(O)OC[C@H]1C[C@](O)(CO)[C@@H](O)[C@H](O)[C@@H]1O` is reported as 3.3 ± 0.4 µM/min (valA (Streptomyces hygroscopicus, UniProt H2K887); phosphate release; 10 µM).
With `Cc1ncc(C)n2nc(/C=C/c3nc(N4CCCC4)cc(N4CCOCC4)n3)nc12` the inhibition was -3% (NMDA receptor; binding; 10 µM).
`Nc1ncc(-c2nc(N3CCOCC3)nc(N3CCOCC3)n2)c(C(F)F)n1` gave a remaining binding of 100% (RET (Homo sapiens, UniProt P07949); KINOMEscan; 10 µM).
The tissue uptake of `C[C@@H](O)[C@@H](CO)NC(=O)[C@@H](CCCNC(=N)N)NC(=O)[C@@H]1CCCN1C(=O)[C@@H]1CSSC[C@H](NC(=O)[C@H](Cc2ccccc2)NC(=O)CN2CCN(CC(=O)O)CCN(CC(=O)O)CCN(CC(=O)O)CC2)C(=O)N[C@@H](Cc2ccc(O)cc2)C(=O)N[C@@H](Cc2ccccc2)C(=O)N[C@@H](CCC(N)=O)C(=O)N[C@@H](CC(N)=O)C(=O)N1` [gallium-68 labelled] is reported as 0.02 %ID/g (healthy Wistar rat, thyroid; intravenous, 8 MBq, 120 min, individual animals).
The relative abundance of `C[C@H]1CN(c2n[nH]c3nc(N[C@H]4CC[C@H](NS(=O)(=O)CCC(F)(F)F)CC4)ncc23)CCO1` is reported as 1.15 (WNK1 (Homo sapiens, UniProt Q9H4A3); inhibitor, Kinobeads competition profiling; 20 µM; relative to: vehicle).
Under “binding free energy”, `CC(=O)N[C@@H](CO)C(=O)N[C@@H](Cc1ccccc1)C(=O)N[C@@H](CCC(=O)O)C(=O)N[C@@H](Cc1ccccc1Cl)C(=O)N1CCC[C@H]1C(=O)N1CCC[C@H]1C(=O)N1CCC[C@H]1C(=O)N1CCC[C@H]1C(=O)N[C@H](C(=O)N[C@@H](CCC(=O)O)C(=O)N[C@@H](CC(=O)O)C(=O)N[C@@H](CCC(=O)O)C(=O)N[C@@H](CC(C)C)C(N)=O)[C@@H](C)O` is recorded as -7.96 kcal/mol (Vasodilator-stimulated phosphoprotein, EVH1 domain (VASP, Homo sapiens, UniProt P50552); fluorescence titration; 25 °C).
`CCCCCCCCCCCCCC[N+](C)(C)C`: “time to steady-state effect” no more than 1 min (Sodium channel protein type 4 alpha, BTX-activated (Oryctolagus cuniculus, UniProt G1SLL9); concentration not given).
`O=C(Nc1cnccc1Cl)N1CCN(Cc2ccc3c(c2)OC(F)(F)O3)CC1` has an inhibition of 0% (Vitamin D3 receptor (VDR, Homo sapiens, UniProt P11473); radioligand binding, inhibitor; 10 µM, human, added: [3H]1alpha,25-dihydroxyvitamin D3).
For `N=C(N)NCCC[C@H]1NC(=O)[C@H](Cc2ccc(O)cc2)NC(=O)[C@H](CCCCN)NC(=O)[C@H](Cc2ccccc2)NC1=O`, the Ke was 814 nM (mu opioid receptor guinea pig; antagonist; guinea pig ileum; added: TAPP).
`Cc1nn(C)cc1-c1nc2c(N3CCN(Cc4ccc(Cl)cc4)CC3)c(Cl)cnc2[nH]1` gave a remaining binding of 85% (ULK3 (Homo sapiens, UniProt Q6PHR2); KINOMEscan; 1 µM; relative to: DMSO control).
For `C[N+](C)(C)CCOC(N)=O`, “endplate depolarization response” read 0.344 (Chrnd/Chrna1/Chrne (Mus musculus, UniProt P02716+P04756+P20782); mouse end plates; 20 µM, unit not given; relative to: control).
For `COc1cc(Nc2ncc(F)c(Nc3ccc4c(n3)NC(=O)C(C)(C)O4)n2)cc(OC)c1OC`, the inhibition was 100% (Aurora kinase B (AURKB, Homo sapiens, UniProt Q96GD4); KINOMEscan; 10 µM).
`CN1CCN(c2cc(-c3ccncc3)c(-c3ccc4ccccc4c3)nn2)CC1` has an activation of 15.4% (HCAR2; agonist, FLIPR; 12.5 µM).
`C[C@@H](O)[C@H](NC(=O)c1ccc(C#Cc2ccccc2)cc1)C(=O)NO` — result for “-TΔS of binding”: -5.1 kcal/mol (UDP-3-O-acyl-N-acetylglucosamine deacetylase C40S; ITC; concentration not given, 298 K).
For `CC[C@H](C)[C@H](NC(=O)[C@H](C)NC(=O)[C@H](CCCCN)NC(=O)[C@H](CC(C)C)NC(=O)[C@H](C)NC(=O)[C@@H](NC(=O)[C@H](Cc1c[nH]cn1)NC(=O)[C@H](CC(C)C)NC(=O)[C@@H](NC(=O)[C@@H](NC(=O)[C@H](CCCCN)NC(=O)[C@H](C)NC(=O)[C@H](C)NC(=O)[C@H](CO)NC(=O)[C@H](CCCCN)NC(=O)[C@H](Cc1ccccc1)NC(=O)[C@@H](NC(=O)[C@H](CCCCN)NC(=O)[C@H](CC(C)C)NC(=O)[C@H](Cc1ccccc1)NC(=O)[C@H](CO)NC(=O)[C@H](CCCCN)NC(=O)[C@H](Cc1c[nH]c2ccccc12)NC(=O)[C@H](CCCCN)NC(C)=O)[C@@H](C)O)[C@@H](C)O)C(C)C)[C@@H](C)O)C(=O)N[C@@H](CO)C(=O)N[C@@H](CO)C(N)=O`, the MBC50 was 8 µg/mL (≈ 2.73 µM) (Staphylococcus aureus; ATCC 29213).
The Km of `NCCO` is reported as 31.4 ± 5.7 µM (eutB/eutC (Salmonella typhimurium, UniProt P19264+P19265); substrate, NADH-coupled; Salmonella enterica).
`NC[C@H](NC(=O)c1ccc(-c2ccc(Br)cc2)cc1)C(=O)NO` — result for “entropy change (ΔS)”: 0.0342 kcal/mol/K (UDP-3-O-acyl-N-acetylglucosamine deacetylase C40S; isothermal titration calorimetry; concentration not given, 298 K, untagged protein, averaged).
The remaining activity of `CC1(C)[C@H](C(=O)O[C@H](C#N)c2cccc(Oc3ccccc3)c2)[C@@H]1C=C(Br)Br` is reported as 98.5% (uncharacterized protein (Anopheles coluzzii, UniProt A0A6E8VQK1); enzyme activity, inhibitor; Sf9 cell homogenate; 0.4545 µM, 0.1667 h, added: α-naphthyl acetate substrate; relative to: no inhibitor).
For `CC(C)(C)c1ccc(OP(=O)(Oc2ccc(C(C)(C)C)cc2)Oc2ccc(C(C)(C)C)cc2)cc1`, the ED50 was greater than 240 mg/kg (Acylamino-acid-releasing enzyme (Apeh, Mus musculus, UniProt Q8R146); mouse, blood).
`CC(C)CC(=O)N[C@H](C(=O)N[C@H](C(=O)N[C@@H](CC(C)C)[C@@H](O)CC(=O)N[C@@H](C)C(=O)N[C@@H](CC(C)C)[C@@H](O)CC(=O)O)C(C)C)C(C)C` gave a Hill slope of -5.06 (Cathepsin D (CTSD, Homo sapiens, UniProt P07339)).
`CC[C@H](C)[C@H](NC(=O)[C@@H](NC(=O)[C@H](CC(C)C)NC(=O)[C@H](CC(N)=O)NC(=O)[C@H](CC(=O)O)NC(=O)[C@H](CCC(=O)O)NC(=O)[C@@H](NC(=O)[C@@H](N)CCCNC(=N)N)[C@@H](C)CC)C(C)C)C(=O)N[C@H](C(=O)N[C@@H](CCCNC(=N)N)C(=O)O)[C@@H](C)CC` has a kon of 241 M⁻¹ s⁻¹ (Epithelial sodium channel subunit gamma (Homo sapiens, UniProt P51170); binding, bio-layer interferometry).
The IC50 of `C[C@H]1COCCN1c1nc(NCc2cccnc2C(F)(F)F)c2cccnc2n1` is reported as greater than 100 µM (CHRNA1/CHRNG/CHRND (Homo sapiens, UniProt P02708+P07510+Q07001); binding; CEREP panel).
For `C[C@H](C(=O)N[C@H]1COc2ccccc2[C@@H]1S(C)(=O)=O)c1ccc(F)cc1`, activity read “inactive” (GRM4 (Homo sapiens, UniProt Q14833); cAMP level, HTRF; human mGluR4 cells; concentration not given, concentration-response).
`CC(CCn1ccc(-c2ccc(-c3cn(Cc4ccccn4)nn3)cc2)cc1=O)(C(=O)NO)S(C)(=O)=O` (stereo not shown) gave a residence time of roughly 3 fold (UDP-3-O-acyl-N-acetylglucosamine deacetylase (Pseudomonas aeruginosa, UniProt P47205); relative to: 1).
`O=[N+]([O-])c1ccc(O[P@](=O)(Oc2ccccc2)OC2CCCCC2)cc1` gave a Km of 260 ± 30 µM (had (Sphingobium sp. TCM1, UniProt A0A077JBW9)).
`O=C(c1ccc(Cl)cc1)N1CCN2C(=O)N(OC(=O)N3CCOc4ccccc43)C(=O)C2C1` (stereo not shown) gave a peptide ratio of 0.89 and 0.84 and 1 and 0.94 and 1.41 and 1.28 and 0.99 (Dipeptidyl peptidase 2 (Homo sapiens, UniProt Q9UHL4); MS-based ABPP; SW-620 conditioned medium; 10 µM, 1 h, 37 °C; relative to: compound over DMSO, lower = more inhibition).
For `O=C(O)/C=C/C(=O)O.Oc1cccc2[nH]cc(CCNC3CCCCC3)c12`, the distance travelled was 2460 ± 274 cm (C57BL/6J mice; subcutaneous, 0.3 mg/kg, 30 min).
For `Oc1ccc2c3c1O[C@H]1[C@@H](O)CC[C@@]4(O)[C@@H](C2)N(CC2CCC2)CC[C@]314`, “log2 fold change” read -0.171 (HCAR2; β-arrestin recruitment, TANGO luminescence, measured: GPR109A; concentration not given; relative to: basal luminescence).
For `Cc1ccccc1NC(=O)Nc1ccc(CC(=O)N[C@@H](CCCCNC(=O)/C=C/c2cccnc2)C(=O)N[C@@H](CCCC(=O)O)C(=O)NC2(C(=O)NCCOCCOCCOCCOCC(=O)N[C@@H](CCCCNC(=S)Nc3ccc(CCCN(CCN4CCN(CP(=O)(O)O)CCN(CP(=O)(O)O)CC4)CC(=O)O)cc3)C(N)=O)CCCCC2)cc1` [gallium-68 labelled], the tissue uptake was 10.1 ± 0.6 %ID/g (mouse, kidney; intravenous, 4 h post-injection).
Under “inhibition of binding”, `O=C(Nc1cccnn1)N1CCC(=Cc2cccc(Oc3ccc(C(F)(F)F)cn3)c2)CC1` is recorded as 19% (LTB4R; radioligand binding; 10 µM, added: [3H]LTB4).
`CN(C)CCNc1nc2cc(O)ccc2c2c1C(=O)c1ccccc1-2.Cl.Cl` gave an FLuc/RLuc ratio of 0.28 and 0.248 and 0.267 (Protein transport protein Sec61 subunit alpha isoform 1 (Homo sapiens, UniProt P61619); reporter gene; HEK293 reporter-transfected; 6 h, CD4 signal peptide; relative to: FLuc over RLuc).
`[2H]c1c([2H])c([C@]2([2H])CCCN2C(=O)C(C)(C)Oc2ccc3cn[nH]c3c2)c([2H])c([2H])c1C([2H])([2H])[2H]` has a remaining binding of 100% (MAP3K12 (Homo sapiens, UniProt Q12852); KINOMEscan; 1 µM; relative to: DMSO control).
Under “entropy change ΔS”, `CC[C@H](C)[C@H](NC(=O)CNC(=O)[C@@H](N)CCCCN)C(=O)N[C@@H](CC(C)C)C(=O)N[C@@H](CCCCN)C(=O)N[C@@H](CC(N)=O)C(=O)N[C@@H](CCCNC(=N)N)C(=O)N[C@@H](C)C(=O)N[C@@H](CCCNC(=N)N)C(=O)N[C@@H](CCCNC(=N)N)C(=O)N[C@@H](CCC(=O)O)C(=O)N[C@@H](CCCNC(=N)N)C(=O)N1CCC[C@H]1C(=O)NCC(=O)N[C@@H](CCCCN)C(=O)N[C@@H](CCCNC(=N)N)C(=O)N[C@@H](CCCCN)C(=O)N[C@@H](CC(N)=O)C(=O)N[C@H](C(=O)N[C@@H](Cc1c[nH]cn1)C(=O)N[C@@H](Cc1c[nH]c2ccccc12)C(=O)N1CCC[C@H]1C(=O)N[C@@H](CCC(=O)O)C(=O)N[C@@H](CCC(=O)O)C(=O)NCC(=O)N[C@@H](CCCCN)C(=O)N[C@@H](CC(C)C)C(=O)N[C@@H](CCCNC(=N)N)C(=O)N[C@@H](CCC(=O)O)C(=O)N[C@@H](Cc1ccc(O)cc1)C(=O)N[C@@H](Cc1ccccc1)C(=O)N[C@@H](Cc1ccc(O)cc1)C(=O)N[C@@H](Cc1ccccc1)C(=O)N[C@@H](CCC(=O)O)C(=O)N[C@@H](CC(C)C)C(=O)N[C@@H](CC(=O)O)C(=O)N[C@@H](CCC(=O)O)C(=O)N[C@@H](C)C(=O)N[C@@H](CCC(=O)O)C(=O)N[C@@H](CCCNC(=N)N)C(=O)N[C@H](C(=O)N[C@@H](CC(N)=O)C(=O)N[C@H](C(=O)O)C(C)C)C(C)C)C(C)C` is recorded as -78.7 ± 0.6 cal/mol/K (PPP1CA (Homo sapiens, UniProt P62136); binding, isothermal titration calorimetry; concentration not given, 25 °C, PP1α residues 7-330).
